Measurements gathered from unrelated publications.
Parts stem from different laboratories: compare values within a part only.

Study 1
Target: Protein C-ets-1 (ETS1, Homo sapiens, UniProt P14921, residues 1-441, Y397A, full length assumed)
Sequence of UniProt P14921 (whole entry, unmodified, looked up): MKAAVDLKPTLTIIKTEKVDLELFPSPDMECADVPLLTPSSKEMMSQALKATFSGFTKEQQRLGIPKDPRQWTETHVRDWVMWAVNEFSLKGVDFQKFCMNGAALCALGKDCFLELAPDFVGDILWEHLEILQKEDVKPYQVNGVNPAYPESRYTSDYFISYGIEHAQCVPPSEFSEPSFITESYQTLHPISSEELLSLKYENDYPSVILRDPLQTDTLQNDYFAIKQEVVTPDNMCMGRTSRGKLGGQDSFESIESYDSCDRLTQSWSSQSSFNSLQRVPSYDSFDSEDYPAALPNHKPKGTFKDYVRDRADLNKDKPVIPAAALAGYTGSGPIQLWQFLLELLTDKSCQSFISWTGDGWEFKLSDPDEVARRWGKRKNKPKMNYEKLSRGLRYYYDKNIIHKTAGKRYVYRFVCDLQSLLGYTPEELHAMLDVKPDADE
Method: protein-binding microarray
Molecule type: double-stranded DNA, one strand shown
Sample: in vitro
Tested at: not given
Setting: k-mer, scored over probes, only values ≥0.25
Reading: higher = stronger binding
The E-score of `ATACACAA` is reported as 0.26.
`TATTGTCA` has an E-score of 0.282.
`ATTCGTCA` gave an E-score of 0.268.
`ACTATAGT` has an E-score of 0.297.
For `CTTGTAAC`, the E-score was 0.279.
`CTCCCCGC` has an E-score of 0.273.
With `ATACATAT` the E-score was 0.266.
The E-score of `CAACAAAA` is reported as 0.271.

Study 2
Target: Replicase polyprotein 1ab, polymerase (rep, Severe acute respiratory syndrome coronavirus 2, UniProt P0DTD1)
Read-out: enzyme activity
Action: inhibitor
Tested at: 20 µM
Fc1ccc(Cl)cc1-c1nc(Nc2ccncc2)c2nccnc2n1 has an inhibition of -3.15%.
O=Cc1ccc(CO)o1 gave an inhibition of -6.21%.
The inhibition of NCCCC[C@H](N[C@@H](CCc1ccccc1)C(=O)O)C(=O)N1CCC[C@H]1C(=O)O is reported as 18.2%.
For COc1cc2c(Oc3ccc(NC(=O)C4(C(=O)Nc5ccc(F)cc5)CC4)cc3F)ccnc2cc1OCCCN1CCOCC1, the inhibition was -1.2%.
With COc1ccc(CCCOC(Cn2ccnc2)c2ccc(OC)cc2)cc1 (centres unmarked) the inhibition was -17.6%.
The inhibition of C[C@H]1CC[C@H](n2c3cnccc3c3cnc(Nc4ccc5c(n4)CCN(C(=O)CO)C5)nc32)CC1 is reported as 3.26%.
COc1ccc(/C=C\c2cc(OC)c(OC)c(OC)c2)cc1O gave an inhibition of 6.53%.
COc1cc2nc(N3CCN(C(=O)C4CCCO4)CC3)nc(N)c2cc1OC (centres unmarked) gave an inhibition of 1.35%.
C=CCC1(CC(C)C)C(=O)NC(=O)NC1=O gave an inhibition of -2.52%.
The inhibition of COc1cc2c(NC3CCN(C(C)C)CC3)nc(N3CCC(F)(F)CC3)nc2cc1OCCCN1CCCC1 is reported as 1.28%.
For c1ccc(-c2[nH]ncc2-c2ccnc3ccccc23)nc1, the inhibition was 0.42%.
For CC(C)C[C@@H](C(=O)N[C@@H](Cc1ccc(OCc2ccccc2)cc1)C(=O)NC(C)(C)C)N(C)Cc1ccc(C(C)(C)C)cc1, the inhibition was 3.81%.
c1cc(-c2sc(-c3ccncc3)c(-c3ccncc3)c2-c2ccncc2)ccn1 gave an inhibition of -0.63%.
CC(C)CNc1ccnc(NCc2csc(-c3ccccc3)n2)n1 gave an inhibition of 32.7%.
For Cc1cc(C)c2c(c1)[C@@H](N(Cc1cc(C(F)(F)F)cc(C(F)(F)F)c1)c1nnn(C)n1)CCCN2C[C@H]1CC[C@H](C(=O)O)CC1, the inhibition was -0.94%.
NCCCC(=O)O gave an inhibition of -1.49%.
Cc1nc(Nc2n[nH]c3c2CN(C(=O)N[C@H](CN(C)C)c2ccccc2)C3(C)C)c2sccc2n1 gave an inhibition of 16.8%.
O=C(Nc1ccc(-c2ccncc2)cc1)N[C@H](CO)c1ccccc1 has an inhibition of -3.84%.
For Nc1c(Br)cc(Br)cc1CN[C@H]1CC[C@H](O)CC1, the inhibition was -2.77%.
The inhibition of COc1cc([C@@H]2c3cc4c(cc3[C@@H](O[C@@H]3O[C@@H]5CO[C@@H](C)O[C@H]5[C@H](O)[C@H]3O)[C@H]3COC(=O)[C@H]23)OCO4)cc(OC)c1OP(=O)(O)O is reported as 1.17%.
With N#CC(c1ccc(Cl)cc1)c1c(Cl)cc(-n2ncc(=O)[nH]c2=O)cc1Cl (centres unmarked) the inhibition was 3.89%.
Nc1nc(F)nc2c1ncn2[C@@H]1O[C@H](COP(=O)(O)O)[C@@H](O)[C@@H]1O gave an inhibition of -0.3%.
The inhibition of Cc1cc(/C=C2\SC(=O)N(c3ccccc3)C2=O)c(C)n1-c1cccnc1 is reported as -0.52%.
For Nc1nccc(Oc2ccc(NC(=O)c3cn(COP(=O)(O)O)cc(-c4ccc(F)cc4)c3=O)cc2F)c1Cl, the inhibition was 18.5%.
Cc1c(N(C)C)c(=O)n(-c2ccccc2)n1C gave an inhibition of 0.97%.

Study 3
Target: Histone acetyltransferase KAT6A, winged helix 1, GST fusion (KAT6A, Homo sapiens, UniProt Q92794, residues 1-85)
Method: protein binding microarray
Molecule type: double-stranded DNA, one strand shown
Sample: in vitro
Tested at: not given
Setting: 8-mer, flanks averaged, mean of 2 arrays, mostly near background
Baseline: not given
Reading: higher = stronger binding
Residues (chain): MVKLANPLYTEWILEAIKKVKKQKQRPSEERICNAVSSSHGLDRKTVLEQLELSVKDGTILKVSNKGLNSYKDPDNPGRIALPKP
For `AGACTCCC`, the E-score was 0.0453.
The E-score of `GCCTACTA` is reported as -0.155.
With `ATAGGCGA` the E-score was -0.00612.
`GCCACTAC` gave an E-score of 0.15.
`AAGGTGAT` gave an E-score of -0.108.
For `ACACCCAG`, the E-score was -0.286.
With `AAAAAATA` the E-score was -0.164.
With `TCAGGCGA` the E-score was -0.0485.

Study 4
Target: Centromere-binding protein 1, full length, N-terminal tag (CBF1, Saccharomyces cerevisiae, UniProt P17106, residues 1-351)
Sequence of UniProt P17106 (whole entry, looked up): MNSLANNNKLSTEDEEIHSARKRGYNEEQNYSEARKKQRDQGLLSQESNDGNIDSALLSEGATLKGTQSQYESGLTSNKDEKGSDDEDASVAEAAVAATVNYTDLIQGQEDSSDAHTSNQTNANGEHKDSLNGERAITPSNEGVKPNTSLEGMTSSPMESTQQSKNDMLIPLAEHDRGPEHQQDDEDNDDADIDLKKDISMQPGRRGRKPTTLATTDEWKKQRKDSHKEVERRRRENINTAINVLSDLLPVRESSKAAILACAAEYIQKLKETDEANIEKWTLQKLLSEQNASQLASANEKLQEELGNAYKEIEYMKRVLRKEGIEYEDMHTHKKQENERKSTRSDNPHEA
Method: protein-binding microarray
Molecule type: double-stranded DNA, one strand shown
Sample: in vitro
Tested at: 0.8 µM
Setting: whole 60-bp probe, no competitor
Reading: higher = stronger binding
The fluorescence intensity of `GAATATCATTTCTAGCGTGCGTTAGTGTTATTATAGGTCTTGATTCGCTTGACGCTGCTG` is reported as 511 a.u.
`CTAGCTGGTGCAGGTGACGCACGAACTTCTTAGTTCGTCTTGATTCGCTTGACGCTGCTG` gave a fluorescence intensity of 1640 a.u.
With `GAACGAGTTCGAGGGCACGTTAGTTGGTTTCGATAGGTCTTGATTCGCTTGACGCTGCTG` the fluorescence intensity was 514 a.u.
With `CTAAACCCTGTCAATCTCCTGAAAAACAAAAATTTCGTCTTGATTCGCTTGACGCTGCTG` the fluorescence intensity was 523 a.u.
With `GAAGTTACCTCCAGGTGATTGCTGTCTTTATGCTAGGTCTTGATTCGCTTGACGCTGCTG` the fluorescence intensity was 537 a.u.
`CTATGTTATCCGGCGCACGATACTTATCACCGATTCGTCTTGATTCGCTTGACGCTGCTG` has a fluorescence intensity of 582 a.u.
The fluorescence intensity of `CTATACACGTGATTTAATATATCCTGTTTTTTTTTCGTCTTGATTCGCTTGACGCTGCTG` is reported as 12000 a.u.
`CTATCGTGGGAAATCCTGATGTCCAACGGTGAGTTCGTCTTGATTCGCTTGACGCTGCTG` has a fluorescence intensity of 505 a.u.

Study 5
Cell line: HEK-293T
Read-out: pseudovirus infection
Method: FDA-approved drug library screen
Organism: VSV pseudotyped with SARS-CoV-2 spike
Tested at: 10 µM
Time: 16 h
Baseline: vehicle-treated
CO/N=C(\C(=O)N[C@@H]1C(=O)N2C(C(=O)O)=C(C[N+]3(C)CCCC3)CS[C@H]12)c1csc(N)n1 has a GFP-positive cells of 101%.
O=c1[nH]c(=O)n([C@H]2C[C@H](O)[C@@H](CO)O2)cc1I has a GFP-positive cells of 70.3%.
OCCN1C[C@H](O)[C@@H](O)[C@H](O)[C@H]1CO has a GFP-positive cells of 73.7%.

Study 6
Target: Replicase polyprotein 1ab, main protease (rep, Severe acute respiratory syndrome coronavirus 2, UniProt P0DTD1)
Read-out: enzyme activity
Action: inhibitor
Tested at: 20 µM
Setting: primary screen
With Oc1cc(CNC(=S)/C=C/c2cc(O)c(O)c(Br)c2)cc(O)c1O the inhibition was 79.4%.
With CCOC(=S)SSC(=S)OCC the inhibition was 99.1%.
Cc1ccc(C(=O)n2nc(-c3cccnc3)nc2N)cc1 gave an inhibition of 46.3%.
CCOC(=O)C1=C(N)Oc2ccc(Br)cc2C1C(C#N)C(=O)OCC (centres unmarked) has an inhibition of 31.8%.

Excerpt of the above (study 6):
With CCOC(=S)SSC(=S)OCC the inhibition was 99.1%.
With Oc1cc(CNC(=S)/C=C/c2cc(O)c(O)c(Br)c2)cc(O)c1O the inhibition was 79.4%.
Cc1ccc(C(=O)n2nc(-c3cccnc3)nc2N)cc1 gave an inhibition of 46.3%.
CCOC(=O)C1=C(N)Oc2ccc(Br)cc2C1C(C#N)C(=O)OCC (centres unmarked) has an inhibition of 31.8%.
